Measured values gathered from unrelated publications.
Numbers after ± are the reported error. Values after ≈ are worked out from the molar mass of the structure shown.

O=C(O)/C=C/c1ccccc1  measured concentration (rat plasma QC sample; 256 ng/mL nominal, 15 days, -80 °C, medium QC level storage stability): 254 ± 12.3 ng/mL
CC(C)=CCC[C@](C)(O[C@@H]1O[C@H](CO[C@@H]2O[C@H](CO)[C@@H](O)[C@H](O)[C@H]2O)[C@@H](O)[C@H](O)[C@H]1O)[C@H]1CC[C@]2(C)[C@@H]1[C@H](O)C[C@@H]1[C@@]3(C)CC[C@H](O[C@@H]4O[C@H](CO)[C@@H](O)[C@H](O)[C@H]4O[C@@H]4O[C@H](CO)[C@@H](O)[C@H](O)[C@H]4O)C(C)(C)[C@@H]3CC[C@]12C  post-preparative stability accuracy (rat, extracted tissue homogenate QC samples; 0.2 µg/mL, 24 h, 15 °C, autosampler): 102 ± 4.5%
Cc1cccc(C)c1OCC(=O)N[C@@H](Cc1ccccc1)[C@@H](O)C[C@H](Cc1ccccc1)NC(=O)[C@H](C(C)C)N1CCCNC1=O  particle permeability (modified PAMPA Franz cell; phosphate buffer with HPMCAS; stock 20 mg/mL, 3 h, 25 °C, 839 nm particles, 300 rpm, added: 3% BSA receiver): 1.6 ± 0.1 ×10⁻⁶ cm/s
CC(C)C[C@H](NC(=O)[C@H](CC(C)C)NC(=O)[C@@H](Cc1c[nH]c2ccccc12)NC(=O)[C@H](Cc1ccccc1)NC(=O)[C@@H](NC(=O)[C@@H](N)CCCCN)[C@H](c1ccccc1)c1c[nH]c2ccccc12)C(N)=O  HPLC retention (RP-HPLC Kinetex Biphenyl; acetonitrile/water TFA gradient): 44.6 %B
Cc1cc(Nc2ccc3ncn([C@@H]4CCc5ccc(F)cc54)c3n2)[nH]n1.Cl.Cl  AUC(0-24h) (Sprague-Dawley rats, both sexes, plasma; oral, 15 mg/kg, 14-day dosing): 4000 to 6000 ng·h/mL
Oc1ccc(/C=C/c2cc(O)cc(O)c2)cc1  AUC(0-t) (male Sprague-Dawley rat, plasma; intravenous, 10 mg/kg): 1840 ng·h/mL
COC(=O)N[C@H](C(=O)N[C@@H](Cc1ccccc1)[C@@H](O)CN(Cc1ccc(-c2ccccn2)cc1)NC(=O)[C@@H](NC(=O)OC)C(C)(C)C)C(C)(C)C  Vd/F (population PK model; pregnant women, second trimester; oral, median, added: without tenofovir): 84 L
COc1ccc2cc3[n+](cc2c1OC)CCc1cc2c(cc1-3)OCO2  measured concentration (rat plasma QC sample; 640 ng/mL nominal, 24 h, 23 °C, high QC level storage stability): 638 ± 19.9 ng/mL
CS(=O)(=O)Nc1ccc(C(=O)O[C@@H](Cc2c(Cl)c[n+]([O-])cc2Cl)c2ccc(OC(F)F)c(OCC3CC3)c2)cc1OCC1CC1  Tmax (human, plasma; inhaled, 7 days, repeat dose once daily, steady state): 1 to 2 h
COc1cc(OC)c(/C=C/S(=O)(=O)Cc2ccc(OC)c(NCC(=O)O)c2)c(OC)c1  Vss/F (cancer patients, phase I, plasma; oral, 280 mg twice daily, day 1 cycle 1): 498 ± 469 L
[2H]C([2H])([2H])Oc1cc2c(cc1OC([2H])([2H])[2H])C1CC(=O)C(CC(C)C)CN1CC2 (centres unmarked)  dose-normalized AUC(0-inf) (measured: deuterated α-HTBZ; healthy human volunteers, plasma; oral, 24 mg single dose, standard meal): 16.7 ng·h/mL
CC(/C=C/C=C(\C)C(=O)O)=C\C=C\C=C(C)\C=C\C=C(/C)C(=O)O  solubility (shake-flask; FeSSGF; 1 h, pH 5.0, 37 °C): < 0.5 µg/mL
CNC(=O)c1ccc(-c2cnc3ncc(Cc4ccc5ncccc5c4)n3n2)cc1F  Cmax (mean) (human, severe hepatic impairment (Child-Pugh C), plasma; oral, 200 mg single dose): 2020 ng/mL
CC[C@H](C)[C@@H]1NC(=O)[C@H](Cc2ccc(O)cc2)NC(=O)[C@@H](N)CSSC[C@@H](C(=O)N2CCC[C@H]2C(=O)N[C@@H](CC(C)C)C(=O)NCC(N)=O)NC(=O)[C@H](CC(N)=O)NC(=O)[C@H](CCC(N)=O)NC1=O  half-life (microdialysis, radioimmunoassay; C57BL/6J male mice, wild type, amygdala extracellular fluid; intraperitoneal, 12 µg total, time to half of Cmax): 0.315 ± 0.0783 h
Cc1[nH]c(=O)c(CNC(=O)c2ccc([N+](=O)[O-])nc2)c2c1CCCC2  kinetic solubility (U-HPLC; 20% DMSO in water): 144 µg/mL
COc1cc(/C=C/C(=O)CC(=O)/C=C/c2ccc(O)c(OC)c2)ccc1O  brain uptake ratio (C57BL/6J mouse, olfactory lobes; 10 µg IN, 100 µg IP, 30 min, I-125 labelled; relative to: IN over IP): 6.79
CC(C)(Sc1ccncc1-c1ccc(C#N)c2ccccc12)C(=O)O  terminal half-life (male, plasma; oral, 15 mg, mild renal impairment, fasted): 9.53 h
CC(C)C[C@H](NC(=O)[C@H](CC(C)C)NC(=O)[C@@H](Cc1c[nH]c2ccccc12)NC(=O)[C@@H](NC(=O)[C@@H](Cc1csc2ccccc12)NC(=O)[C@@H](N)CCCCN)[C@H](c1ccccc1)c1c[nH]c2ccccc12)C(N)=O  HPLC retention (RP-HPLC Kinetex Biphenyl; acetonitrile/water TFA gradient): 50.7 %B
CC(=O)N[C@H](CCNC(=O)c1cc(NC(=O)c2cc(NC(=O)c3cc(NC(=O)c4nccn4C)cn3C)cn2C)cn1C)C(=O)Nc1cn(C)c(C(=O)Nc2cc(C(=O)Nc3cc(C(=O)Nc4cc(C(=O)NCCCN(C)CCCN[14C](=O)c5cccc([14C](=O)O)c5)n(C)c4)n(C)c3)n(C)c2)n1  tissue concentration (radiolabel counting; NSG male mouse, LNCaP xenograft, liver; intraperitoneal, 20 nmol per animal, 24 h): 1.04 mg/kg
CCN(CC)CCNC(=O)c1c(C)[nH]c(/C=C2\C(=O)Nc3ccc(F)cc32)c1C  minimum trough plasma concentration (human, plasma; oral, 15 mg/m2, day 28): 16.1 ng/mL
CS(=O)(=O)n1cc2c(n1)CN([C@@H]1C[C@H](N)[C@@H](c3cc(F)ccc3F)O[C@@H]1C(F)(F)F)C2  Ctrough (human, plasma; oral, 25 mg, 1008 h after first dose, multiple dose): 14.9 ± 10.7 ng/mL
CCCC[C@H](NC(C)=O)C(=O)N[C@H]1CCC(=O)NC[C@@H](C(=O)N[C@@H](Cc2c[nH]c3ccccc23)C(N)=O)NC(=O)[C@H](CCCNC(=N)N)NC(=O)[C@@H](Cc2ccccc2)NC(=O)[C@H](Cc2c[nH]cn2)NC1=O  Tmax (beagle dog, female, plasma; subcutaneous, 40.0 mg/kg daily, day 1): 0.56 h
Cc1ccc2[nH]c(=O)c(CC(=O)O)c(-c3ccccc3)c2c1  logP (potentiometric, initial protocol; cation species): 1.86
CC[C@H](C)[C@@H]1NC(=O)[C@H](CCCCN)NC(=O)[C@H](CCCCN)NC(=O)[C@H](Cc2ccc(O)cc2)NC(=O)[C@H](CC(C)C)NC(=O)[C@@H]2CCCN2C(=O)[C@H](C)NC(=O)CNC(=O)CNC(=O)[C@H](CO)NC(=O)CNC(=O)CNC(=O)[C@H](CO)NC(=O)[C@H](CCCCN)NC(=O)[C@H](CC(C)C)NC(=O)[C@H](CC(C)C)NC(=O)[C@H](CCCCN)NC(=O)[C@H](CCCCN)NC(=O)[C@H]([C@@H](C)CC)NC(=O)[C@H]([C@@H](C)CC)NC(=O)[C@H](CCCCN)NC(=O)[C@H](CCCCN)NC(=O)[C@H](Cc2ccc(O)cc2)NC(=O)[C@H](CC(C)C)NC(=O)[C@@H]2CCCN2C(=O)CNC(=O)CNC(=O)[C@@H](NC(=O)CN)CSSC[C@@H](C(N)=O)NC(=O)[C@H](CC(C)C)NC(=O)[C@H](CCCCN)NC(=O)[C@H](CCCCN)NC(=O)[C@H]([C@@H](C)CC)NC1=O  helicity (circular dichroism; aqueous NaF phosphate buffer; 50 µM, pH 7.5): 33%
CN(C)C(=O)c1cc2cnc(Nc3ccc(N4CCNCC4)cn3)nc2n1C1CCCC1  AUC(0-24h) (CD1 nude mouse, non-tumour-bearing, plasma (total); oral, 100 mg/kg, microdialysis study): 33200 ± 9380 ng·h/mL
Cn1c(-c2ccc(C(N)=O)cc2F)nnc1C(C)(C)Oc1c(F)cc(Cl)cc1F  Cmax range over subjects (young non-Japanese adults, plasma; oral, 20 mg single dose, day 1, high-dose multiple-dose study): 155 to 304 ng/mL
O=C1CCc2ccc(OCCCCN3CCN(c4cccc(Cl)c4Cl)CC3)cc2N1  terminal half-life (healthy Japanese men, CYP2D6 EM, plasma; oral, 3 mg aripiprazole single, added: fluvoxamine 100 mg/day): 110 ± 14.3 h
O=C1CN(/N=C/c2ccc(-c3ccc([N+](=O)[O-])cc3)o2)C(O)=N1  hepatocyte vacuolization score (Sprague-Dawley rat, male, liver; oral, 1000 mg/kg, 6 h, single high dose; direction not given): 0
COc1cccc(N2CCN(C3=Nc4c(F)cccc4[C@H](CC(=O)O)N3c3cc(C(F)(F)F)ccc3OC)CC2)c1  terminal half-life (UHPLC-MS/MS; healthy women, plasma; intravenous infusion, 720 mg single dose, 60 min infusion, HPβCD formulation): 11.6 ± 4.11 h
Cc1cnc(-c2ccnc(C(C)(C)O)n2)cc1-n1c(C)cc(OCc2ncc(F)cc2F)c(Cl)c1=O  quantifiable plasma duration (human, plasma; oral, other than 30, 50, 100 mg, LLOQ 0.5 ng/mL): 48 h
CC(C)=CCC[C@](C)(O[C@@H]1O[C@H](CO)[C@@H](O)[C@H](O)[C@H]1O)[C@H]1CC[C@]2(C)[C@@H]1[C@H](O)C[C@@H]1[C@@]3(C)CC[C@H](O)C(C)(C)[C@@H]3[C@@H](O[C@@H]3O[C@H](CO)[C@@H](O)[C@H](O)[C@H]3O[C@@H]3O[C@@H](C)[C@H](O)[C@@H](O)[C@H]3O)C[C@]12C  post-preparative stability accuracy (rat, extracted tissue homogenate QC samples; 0.01 µg/mL, 24 h, 15 °C, autosampler): 107 ± 7.8%
O=C1C=Cc2c(c(-c3ccco3)cn2S(=O)(=O)c2ccccc2)C1=O  kinetic solubility (LC-MS; PBS, 5% DMSO; 2 h): 21.2 µM
C[C@]12CC[C@@H]3c4ccc(O)cc4CC[C@H]3[C@@H]1C[C@@H](O)[C@@H]2O  mean serum concentration (GC-MS; breast cancer women on NSAI, serum; vaginal, 0.03 mg daily, 0.5 h, day 28): 0.00158 ng/mL
COc1ccc(-c2oc3c(OC)c(OC)c(OC)c(OC)c3c(=O)c2OC)cc1OC  tissue to peel content ratio (C57BL/6 mouse, male, plasma; oral, 1% w/w in diet, 6 weeks, orange peel extract diet; relative to: content in orange peel): 0.064%
OC[C@H]1O[C@@H](c2ccc(F)c(Cc3cc4ccccc4s3)c2)[C@H](O)[C@@H](O)[C@@H]1O  tissue/plasma ratio (Wistar rat, male, small intestine; oral, dose not given, 1 h; relative to: small intestine over plasma concentration): 730 ± 377
Nc1ccn([C@@H]2O[C@H](CO)[C@@H](O)C2(F)F)c(=O)n1  measured concentration (extracted rat plasma; 3200.00 ng/mL, 8 h, 10 °C, autosampler stability, high QC): 3000 ± 152 ng/mL
CCCC[C@@H]1NC(=O)[C@@H](NC(=O)[C@H](CCC(=O)O)NC(=O)CNC(=O)CN2CCN(CC(=O)O)CCN(CC(=O)O)CCN(CC(=O)O)CC2)CCCCNC(=O)C[C@@H](C(N)=O)NC(=O)[C@H](C(C)C)NC(=O)[C@@H]2CCCN2C(=O)[C@H](CCCNC(=N)N)NC(=O)CNC(=O)[C@H](Cc2c[nH]c3ccccc23)NC(=O)[C@H](CCCNC(=N)N)NC(=O)[C@@H](Cc2ccccc2)NC(=O)[C@H](Cc2c[nH]cn2)NC(=O)[C@H](CCC(=O)O)NC1=O [indium-111 labelled]  lung to tissue ratio (measured: kidney; C57 mice; intravenous, 0.037 MBq, 24 h): 0.002
Cc1nc2cccc(OCC(C)(C)C(=O)NC(C)C)c2c(N)c1C(=O)O  Tmax (female Sprague-Dawley rat, plasma; oral gavage, 30 mg/kg, day 7): 0.25 h
COc1ccc(-c2cc(=O)c3c(O)c(OC)c(OC)c(OC)c3o2)cc1OC  tissue to peel content ratio (C57BL/6 mouse, male, colon; oral, 1% w/w in diet, 6 weeks, orange peel extract diet; relative to: content in orange peel): 1.89%
C[C@](N)(Cc1ccc(O)c(O)c1)C(=O)O  solubility (supercritical carbon dioxide; 5 h, 343 K, 24 MPa, density 724.9 kg/m3): 300 µg/mL (≈ 1420 µM)
Cn1cnc2c(F)c(Nc3ccc(Br)cc3Cl)c(C(=O)NOCCO)cc21  subjects with related adverse events (human, hepatic impairment and healthy; oral, 50 mg): 6.3%
CN[C@H](CC(C)C)C(=O)N[C@H]1C(=O)N[C@@H](CC(N)=O)C(=O)N[C@H]2C(=O)N[C@H]3C(=O)N[C@H](C(=O)N[C@H](C(=O)O)c4cc(O)cc(O)c4-c4cc3ccc4O)[C@H](O)c3ccc(c(Cl)c3)Oc3cc2cc(c3O[C@@H]2O[C@H](CO)[C@@H](O)[C@H](O)[C@H]2O[C@H]2C[C@](C)(N)[C@H](O)[C@H](C)O2)Oc2ccc(cc2Cl)[C@H]1O  time above MIC (pig (Danish Landrace), plasma, free concentration; iv infusion, 1000 mg over 100 min, MIC 2.0 µg/mL, added: meropenem co-administered): 448 min
CN1CC[C@@H](NC(=O)Nc2ccc(C#N)cc2)C[C@@H]1c1nc2ccccc2[nH]1  unbound Cmax (human, normal hepatic function, fasted, plasma; oral, 100 mg single dose, geometric mean, fu × total): 72.8 ng/mL
CCCSc1nc(N[C@@H]2C[C@H]2c2ccc(F)c(F)c2)c2nnn([C@@H]3C[C@H](OCCO)[C@@H](O)[C@H]3O)c2n1  AUC (female Wistar Han rats, plasma; oral, 20 mg/kg/day, week 26, carcinogenicity study): 23.2 µM·h

Some of these lines once more:
Cc1[nH]c(=O)c(CNC(=O)c2ccc([N+](=O)[O-])nc2)c2c1CCCC2  kinetic solubility (U-HPLC; 20% DMSO in water): 144 µg/mL
Cc1cnc(-c2ccnc(C(C)(C)O)n2)cc1-n1c(C)cc(OCc2ncc(F)cc2F)c(Cl)c1=O  quantifiable plasma duration (human, plasma; oral, other than 30, 50, 100 mg, LLOQ 0.5 ng/mL): 48 h
COc1ccc(-c2cc(=O)c3c(O)c(OC)c(OC)c(OC)c3o2)cc1OC  tissue to peel content ratio (C57BL/6 mouse, male, colon; oral, 1% w/w in diet, 6 weeks, orange peel extract diet; relative to: content in orange peel): 1.89%
Cc1cccc(C)c1OCC(=O)N[C@@H](Cc1ccccc1)[C@@H](O)C[C@H](Cc1ccccc1)NC(=O)[C@H](C(C)C)N1CCCNC1=O  particle permeability (modified PAMPA Franz cell; phosphate buffer with HPMCAS; stock 20 mg/mL, 3 h, 25 °C, 839 nm particles, 300 rpm, added: 3% BSA receiver): 1.6 ± 0.1 ×10⁻⁶ cm/s
